Measured values collected from several papers.
Values joined by “and” are separate records of one study, mostly repeats; a detail may differ. ± gives the spread as reported. Ends that are not written are not given here.
Ribonuclease pancreatic P47C: Ribonuclease pancreatic (Homo sapiens, UniProt P07998, P47C)
Chain of UniProt P07998 (whole entry, unmodified, looked up): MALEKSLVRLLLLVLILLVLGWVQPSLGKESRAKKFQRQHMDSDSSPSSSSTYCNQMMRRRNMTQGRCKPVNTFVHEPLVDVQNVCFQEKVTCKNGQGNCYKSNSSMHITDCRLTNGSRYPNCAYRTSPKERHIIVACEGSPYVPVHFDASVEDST
kptA: kptA (Runella slithyformis, UniProt A0A7U3ZK32)
dxs: 1-deoxy-D-xylulose-5-phosphate synthase (dxs, Deinococcus radiodurans, UniProt Q9RUB5)
Chain of UniProt Q9RUB5 (whole entry, looked up): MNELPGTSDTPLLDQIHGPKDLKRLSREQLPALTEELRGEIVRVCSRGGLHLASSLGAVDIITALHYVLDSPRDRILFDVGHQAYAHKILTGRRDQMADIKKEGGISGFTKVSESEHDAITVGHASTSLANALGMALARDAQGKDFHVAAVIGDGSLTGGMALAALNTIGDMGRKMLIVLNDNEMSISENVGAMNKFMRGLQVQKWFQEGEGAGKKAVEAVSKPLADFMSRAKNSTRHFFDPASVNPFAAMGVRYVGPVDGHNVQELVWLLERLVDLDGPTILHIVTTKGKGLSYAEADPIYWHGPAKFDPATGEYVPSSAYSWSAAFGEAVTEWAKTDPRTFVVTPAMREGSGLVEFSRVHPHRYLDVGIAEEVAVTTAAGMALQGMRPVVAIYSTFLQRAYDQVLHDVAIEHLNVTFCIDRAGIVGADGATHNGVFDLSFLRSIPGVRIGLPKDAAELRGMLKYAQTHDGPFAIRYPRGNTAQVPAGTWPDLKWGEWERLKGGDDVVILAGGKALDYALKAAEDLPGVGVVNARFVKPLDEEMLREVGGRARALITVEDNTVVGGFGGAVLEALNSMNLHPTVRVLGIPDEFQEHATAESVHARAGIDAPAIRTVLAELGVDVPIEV
Chain of UniProt P13569 (whole entry, unmodified, looked up): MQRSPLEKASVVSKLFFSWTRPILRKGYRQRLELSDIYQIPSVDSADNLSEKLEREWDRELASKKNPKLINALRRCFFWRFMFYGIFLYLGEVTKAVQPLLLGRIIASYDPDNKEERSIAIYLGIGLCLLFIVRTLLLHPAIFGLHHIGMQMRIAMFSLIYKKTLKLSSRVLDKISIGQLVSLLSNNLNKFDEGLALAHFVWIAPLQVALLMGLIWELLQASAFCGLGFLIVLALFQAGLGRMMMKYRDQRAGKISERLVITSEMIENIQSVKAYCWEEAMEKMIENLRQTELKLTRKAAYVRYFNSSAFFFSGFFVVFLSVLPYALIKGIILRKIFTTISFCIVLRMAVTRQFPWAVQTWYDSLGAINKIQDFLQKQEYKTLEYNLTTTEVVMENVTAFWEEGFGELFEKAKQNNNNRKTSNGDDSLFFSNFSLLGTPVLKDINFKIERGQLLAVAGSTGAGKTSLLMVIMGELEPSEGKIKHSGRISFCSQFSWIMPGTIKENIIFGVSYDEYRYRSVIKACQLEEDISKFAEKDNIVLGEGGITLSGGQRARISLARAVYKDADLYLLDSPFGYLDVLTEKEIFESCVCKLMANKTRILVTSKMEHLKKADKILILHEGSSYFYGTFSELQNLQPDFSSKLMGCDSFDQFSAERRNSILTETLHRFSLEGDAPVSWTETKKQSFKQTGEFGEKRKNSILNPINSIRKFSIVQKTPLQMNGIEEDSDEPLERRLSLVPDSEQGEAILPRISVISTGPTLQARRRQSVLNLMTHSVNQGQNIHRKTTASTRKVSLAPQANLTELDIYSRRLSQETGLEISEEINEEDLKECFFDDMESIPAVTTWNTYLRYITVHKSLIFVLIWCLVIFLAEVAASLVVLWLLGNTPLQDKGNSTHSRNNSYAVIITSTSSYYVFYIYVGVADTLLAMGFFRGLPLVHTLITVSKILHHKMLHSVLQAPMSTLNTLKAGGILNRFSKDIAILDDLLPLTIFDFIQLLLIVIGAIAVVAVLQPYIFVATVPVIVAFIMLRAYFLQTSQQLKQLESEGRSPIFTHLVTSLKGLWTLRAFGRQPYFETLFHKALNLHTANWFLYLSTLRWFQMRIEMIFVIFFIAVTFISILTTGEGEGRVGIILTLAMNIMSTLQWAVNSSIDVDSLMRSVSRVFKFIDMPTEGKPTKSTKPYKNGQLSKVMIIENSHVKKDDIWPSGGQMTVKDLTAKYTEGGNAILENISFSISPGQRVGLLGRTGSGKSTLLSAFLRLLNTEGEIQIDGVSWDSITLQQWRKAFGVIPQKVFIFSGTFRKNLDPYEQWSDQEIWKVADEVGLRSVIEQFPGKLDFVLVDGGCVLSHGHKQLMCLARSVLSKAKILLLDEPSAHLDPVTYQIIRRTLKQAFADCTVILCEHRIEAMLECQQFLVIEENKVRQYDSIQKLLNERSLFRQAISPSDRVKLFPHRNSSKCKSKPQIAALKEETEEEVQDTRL
Chain of UniProt P50225 (whole entry, looked up): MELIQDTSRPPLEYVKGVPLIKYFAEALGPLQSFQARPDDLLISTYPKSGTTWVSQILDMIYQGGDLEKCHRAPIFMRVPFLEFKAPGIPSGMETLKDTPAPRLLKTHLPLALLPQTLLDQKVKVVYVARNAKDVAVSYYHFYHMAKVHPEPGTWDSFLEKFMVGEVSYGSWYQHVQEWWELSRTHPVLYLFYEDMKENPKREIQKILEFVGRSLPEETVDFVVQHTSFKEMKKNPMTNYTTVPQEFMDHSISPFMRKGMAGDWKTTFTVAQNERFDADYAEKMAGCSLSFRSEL
Chain of UniProt P38999 (whole entry, looked up): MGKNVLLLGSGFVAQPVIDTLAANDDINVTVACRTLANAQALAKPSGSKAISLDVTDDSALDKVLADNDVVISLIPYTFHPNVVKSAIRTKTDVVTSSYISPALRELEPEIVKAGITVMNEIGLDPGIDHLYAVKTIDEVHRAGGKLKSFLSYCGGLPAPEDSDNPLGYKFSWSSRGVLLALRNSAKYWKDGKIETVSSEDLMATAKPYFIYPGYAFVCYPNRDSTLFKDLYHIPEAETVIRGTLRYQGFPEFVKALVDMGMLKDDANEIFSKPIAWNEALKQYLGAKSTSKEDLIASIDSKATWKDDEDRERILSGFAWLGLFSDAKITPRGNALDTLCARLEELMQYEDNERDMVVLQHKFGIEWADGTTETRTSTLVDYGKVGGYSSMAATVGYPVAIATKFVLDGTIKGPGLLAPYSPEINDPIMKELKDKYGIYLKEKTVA
Chain of UniProt Q03041 (whole entry, unmodified, looked up): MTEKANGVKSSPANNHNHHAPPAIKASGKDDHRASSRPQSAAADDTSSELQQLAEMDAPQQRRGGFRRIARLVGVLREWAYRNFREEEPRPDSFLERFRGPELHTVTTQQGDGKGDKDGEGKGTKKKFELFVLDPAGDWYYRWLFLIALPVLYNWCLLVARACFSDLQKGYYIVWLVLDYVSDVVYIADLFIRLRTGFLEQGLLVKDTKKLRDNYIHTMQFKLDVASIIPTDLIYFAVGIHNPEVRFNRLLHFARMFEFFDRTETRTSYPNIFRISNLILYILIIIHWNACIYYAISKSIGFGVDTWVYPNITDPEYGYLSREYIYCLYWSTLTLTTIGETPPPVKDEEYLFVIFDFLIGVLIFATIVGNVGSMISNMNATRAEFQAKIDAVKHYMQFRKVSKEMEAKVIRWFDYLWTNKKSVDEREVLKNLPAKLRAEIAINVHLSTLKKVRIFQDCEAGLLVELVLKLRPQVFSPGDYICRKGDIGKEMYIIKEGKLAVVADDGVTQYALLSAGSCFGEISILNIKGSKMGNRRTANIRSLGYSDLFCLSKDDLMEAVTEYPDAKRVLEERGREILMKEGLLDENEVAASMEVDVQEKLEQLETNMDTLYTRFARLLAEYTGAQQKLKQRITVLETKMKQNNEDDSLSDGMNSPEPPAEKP
Chain of UniProt Q68D91 (whole entry, looked up): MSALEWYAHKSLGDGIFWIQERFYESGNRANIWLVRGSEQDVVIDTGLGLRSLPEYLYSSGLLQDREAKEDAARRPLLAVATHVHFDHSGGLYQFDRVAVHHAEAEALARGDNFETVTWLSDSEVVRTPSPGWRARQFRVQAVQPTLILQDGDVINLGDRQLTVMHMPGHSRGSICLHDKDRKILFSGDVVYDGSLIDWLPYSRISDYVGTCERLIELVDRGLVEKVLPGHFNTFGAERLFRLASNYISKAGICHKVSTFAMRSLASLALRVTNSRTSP
Chain of UniProt O51933 (whole entry, looked up): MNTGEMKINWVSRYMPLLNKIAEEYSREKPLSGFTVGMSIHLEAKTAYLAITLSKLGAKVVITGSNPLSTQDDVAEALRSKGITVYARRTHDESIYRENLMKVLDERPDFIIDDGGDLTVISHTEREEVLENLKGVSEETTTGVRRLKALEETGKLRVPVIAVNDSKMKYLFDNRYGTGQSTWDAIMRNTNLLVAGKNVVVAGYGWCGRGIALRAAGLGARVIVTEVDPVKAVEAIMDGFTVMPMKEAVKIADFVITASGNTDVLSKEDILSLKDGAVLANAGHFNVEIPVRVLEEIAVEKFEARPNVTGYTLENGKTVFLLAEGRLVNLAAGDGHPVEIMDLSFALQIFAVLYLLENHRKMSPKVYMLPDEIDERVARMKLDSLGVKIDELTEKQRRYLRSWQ
Chain of UniProt Q9NQT5 (whole entry, looked up): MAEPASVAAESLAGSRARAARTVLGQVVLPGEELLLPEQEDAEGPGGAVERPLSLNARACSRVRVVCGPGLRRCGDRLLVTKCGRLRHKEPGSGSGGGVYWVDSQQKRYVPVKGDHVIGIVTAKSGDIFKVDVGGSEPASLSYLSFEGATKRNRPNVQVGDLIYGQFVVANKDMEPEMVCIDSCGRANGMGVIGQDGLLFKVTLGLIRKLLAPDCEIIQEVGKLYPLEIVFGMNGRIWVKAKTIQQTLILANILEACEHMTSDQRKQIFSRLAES
Chain of UniProt Q5E9C8 (whole entry, looked up): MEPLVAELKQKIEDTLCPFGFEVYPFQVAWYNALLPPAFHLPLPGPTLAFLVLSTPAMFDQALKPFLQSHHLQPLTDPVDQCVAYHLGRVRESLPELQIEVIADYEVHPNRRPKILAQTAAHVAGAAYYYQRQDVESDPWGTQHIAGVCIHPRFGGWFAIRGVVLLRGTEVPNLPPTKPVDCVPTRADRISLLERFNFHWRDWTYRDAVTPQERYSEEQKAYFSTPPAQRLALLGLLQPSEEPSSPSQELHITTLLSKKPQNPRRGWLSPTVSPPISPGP

`CC(=O)NC1C(O)CC(OC2C(O)C(CO)OC(OC3C(O)C(CO)OC(OC4C(O)C(CO)OC(OC5C(CO)OC(OC6C(CO)OC(O)C(O)C6O)C(O)C5O)C4O)C3NC(C)=O)C2O)(C(=O)O)OC1C(O)C(O)CO` (stereo not shown) has a Kd of 12 ± 2 µM (Ribonuclease pancreatic P47C; binding, solid-phase fluorescence binding; pH 5.0, 130 mM NaCl, surface glycan, together with: BODIPY-labelled RNase).
For `NCCCc1ccccc1`, the Kd was 10000 µM and ~10000 µM (Cystic fibrosis transmembrane conductance regulator, pore-binding site (CFTR, Homo sapiens, UniProt P13569, K1250A); pore block, patch clamp; estimated at 60 mV).
For `NC(=O)c1ccc[n+]([C@@H]2O[C@H](COP(=O)([O-])O)[C@@H](O)[C@H]2O)c1`, Kd read “no binding” (kptA; isothermal titration calorimetry; 17 °C).
The Kd of `CCCCCCCCCCCCCCCC(=O)OC[C@H](COP(=O)(O)O[C@@H]1[C@H](O)[C@H](OP(=O)(O)O)[C@@H](O)[C@H](O)[C@H]1O)OC(=O)CCCCCCCCCCCCCCC` is reported as 0.51 ± 0.01 µM (Early endosome antigen 1, FYVE domain (EEA1, Homo sapiens, UniProt Q15075); membrane binding, surface plasmon resonance; POPC/POPE/compound vesicles 77:20:3; pH 7.4, 25 °C).
The Kd of `{fluorescein-Ahx}-LPCDYYGTCLD (N-fluorescein-aminocaproyl; cysteine pairing not given here; Ahx = NCCCCCC(=O)O)` is reported as 1.3 ± 0.4 µM (fibrin fragment DD(E); fluorescence polarization; peptide).
`COc1ccc2c(CC(=O)NCCCC[C@H](N)C(=O)N[C@@H](CCC(=O)O)C(=O)N[C@@H](Cc3ccc(CS(=O)(=O)O)cc3)C(=O)N[C@@H](CCC(=O)O)C(=O)N[C@@H](Cc3ccc(CS(=O)(=O)O)cc3)C(=O)N[C@@H](CC(C)C)C(=O)N[C@@H](CC(=O)O)C(=O)N[C@@H](Cc3ccc(CS(=O)(=O)O)cc3)C(=O)N[C@@H](CC(=O)O)C(=O)N[C@@H](Cc3ccccc3)C(=O)N[C@@H](CC(C)C)C(=O)N3CCC[C@H]3C(=O)N[C@@H](CCC(=O)O)C(=O)N[C@H](C(=O)N[C@@H](CCC(=O)O)C(=O)N3CCC[C@H]3C(=O)N[C@@H](CC(C)C)C(=O)O)[C@@H](C)O[C@H]3O[C@H](CO[C@@H]4O[C@H](CO)[C@@H](O[C@@H]5O[C@H](CO)[C@H](O)[C@H](O[C@]6(C(=O)O)C[C@H](O)[C@@H](NC(C)=O)[C@H]([C@H](O)[C@H](O)CO)O6)[C@H]5O)[C@H](O[C@@H]5O[C@@H](C)[C@@H](O)[C@@H](O)[C@@H]5O)[C@H]4NC(C)=O)[C@H](O)[C@H](O[C@@H]4O[C@H](CO)[C@H](O)[C@H](O)[C@H]4O)[C@H]3NC(C)=O)cc(=O)oc2c1` has a Kd of ~0.022 µM (P-selectin (SELP, Homo sapiens, UniProt P16109); binding, SPR).
For `COc1cccc(/C=N/NC(=O)CCCOc2ccc(Cl)cc2Cl)c1O`, the Kd was 90 µM (dxs; binding, SPR).
`CC(C)=CCCC1(C)C=Cc2c(O)c3c(c(CC=C(C)C)c2O1)OC12C(=CCCC1C(C)(C)O[C@@]2(C/C=C(\C)C(=O)O)C(=O)O)C3=O` (stereo partly shown) has a Kd of 1.3 ± 0.4 µM (CBP KIX domain Y631W; binding, stopped-flow fluorescence kinetics).
The Kd of `CC(=O)N[C@H]1[C@H](O[C@H]2[C@H](O)[C@@H](NC(C)=O)C(O)O[C@@H]2CO)O[C@H](CO)[C@@H](O[C@@H]2O[C@H](CO)[C@@H](O)[C@H](O)[C@H]2NC(C)=O)[C@@H]1O` (stereo partly shown) is reported as 14 ± 2 µM (Lysozyme C (LYZ, Gallus gallus, UniProt P00698); binding; pH 7.4).
For `TAMRA-ADP`, the Kd was 0.274 ± 0.067 µM (mutS (Escherichia coli, UniProt P23909); binding, fluorescence anisotropy; pH 7.5, room temperature, labelled ADP analogue, no DNA, high-affinity site, together with: 10 mM MgCl2).
For `Nc1ncnc2c1ncn2[C@@H]1O[C@H](CSCC[C@H](N)C(=O)O)[C@@H](O)[C@H]1O`, the Kd was 4.3 ± 0.7 µM (PNMT (Homo sapiens, UniProt P11086); fluorescence quenching; room temperature; lower = stronger binding).
For `O=C(N/N=C/c1ccc2cc[nH]c2c1)c1cc2c(s1)CCCC2`, the Kd was 32 µM (dxs; binding, SPR).
With `C/C1=C2/[N-][C@H]([C@H](CC(N)=O)[C@@]2(C)CCC(=O)NC[C@H](C)OP(=O)([O-])O[C@H]2[C@@H](O)[C@@H](n3cnc4cc(C)c(C)cc43)O[C@@H]2CO)[C@]2(C)N=C(/C(C)=C3N=C(/C=C4N=C1[C@@H](CCC(N)=O)C\4(C)C)[C@@H](CCC(N)=O)[C@]\3(C)CC(N)=O)[C@@H](CCC(N)=O)[C@]2(C)CC(N)=O.[CH3-].[Co+3]` the Kd was 4.7 ± 1 µM (Cyanocobalamin reductase / alkylcobalamin dealkylase (MMACHC, Bos taurus, UniProt Q5E9C8); UV-Vis spectroscopy; dark conditions).
For `Nc1ncc(/C=N/NC(=O)c2cc3c(s2)CCCC3)cn1`, the Kd was 64 µM (dxs; binding, SPR).
For `CC(=O)N[C@H]1[C@H](O[C@H]2[C@@H](O)[C@@H](CO)O[C@H](O[C@@H]3[C@H](O)[C@@H](O)[C@H](O[C@H]4[C@H](O)[C@@H](O)[C@H](O)O[C@@H]4CO)O[C@@H]3CO)[C@@H]2O)O[C@H](CO)[C@H](O)[C@@H]1O[C@@H]1O[C@H](CO)[C@H](O)[C@H](O)[C@H]1O[C@@H]1O[C@@H](C)[C@@H](O)[C@@H](O)[C@@H]1O`, the Kd was 11 ± 2 µM (Ribonuclease pancreatic P47C; binding, solid-phase fluorescence binding; pH 5.0, 130 mM NaCl, surface glycan, together with: BODIPY-labelled RNase).
For `C#Cc1ccc(-c2ccccc2)cc1`, the Kd was 1.9 µM (Cytochrome P450 2A13 (Homo sapiens, UniProt Q16696); binding, absorbance; pH 7.4).
`CCCCN(Cc1ccc(C(=O)NO)cc1)C(=O)Nc1ccccc1` has a Kd of 0.0251 µM (MBLAC2 (Homo sapiens, UniProt Q68D91); binding, competitor, chemoproteomic pulldown; SW-620 MV4-11 lysate; 1 h, 30 °C).
The Kd of `CC/C(=C(\c1ccc(O)cc1)c1ccc(OCCN(C)C)cc1)c1ccccc1` is reported as 13 µM (SULT1A1 (Homo sapiens, UniProt P50225); binding, fluorescence titration; low-affinity site of E·PAP, together with: 6.0 µM PAP).
The Kd of `Nc1ncnc2c1ncn2[C@@H]1O[C@H](COP(=O)(O)OP(=O)(O)O)[C@@H](O)[C@H]1O` is reported as 9.12 ± 0.181 µM (ATP1A1 (Sus scrofa, UniProt P05024); binding, radioligand binding; pig membranes; pH 7.7, 0 °C, ionic strength 578 mM, together with: NaCl 519 mM).
The Kd of `CCC(C)(C)C(=O)O[C@H]1C[C@@H](C)C=C2C=C[C@H](C)[C@H](CC[C@@H]3C[C@@H](O)CC(=O)O3)[C@H]21` is reported as 9.7 µM (Rgg3 Streptococcus pyogenes; competition fluorescence polarization; together with: FITC-SHP2-C8 10 nM).
With `Nc1ncnc2c1ncn2[C@@H]1O[C@H](COP(=O)(O)OP(=O)(O)NP(=O)(O)O)[C@@H](O)[C@H]1O` the Kd was 5 ± 0.5 µM (CFTR NBD1; binding, thermal shift).
With `CC(=O)[C@H]1CC[C@H]2[C@@H]3CC=C4C[C@@H](O)CC[C@]4(C)[C@H]3CC[C@]12C` the Kd was < 0.1 µM (CYP17A1 (Homo sapiens, UniProt P05093, C22K/P23T/R20A/R21K); binding, UV/vis spectral shift titration).
With `Nc1ncnc2c1ncn2[C@@H]1O[C@H](COP(=O)(O)OP(=O)(O)OP(=O)(O)O)[C@@H](O)[C@H]1O` the Kd was 1.8 µM (Tyrosine-protein kinase JAK1, kinase domain (JAK1, Homo sapiens, UniProt P23458)).
`[I-].[K+]` gave a Kd of 2900 µM (SLC4A1 (Homo sapiens, UniProt P02730); chloride exchange flux, inhibitor, Dixon plot; human red blood cells; pH 9.2, 0 °C, intracellular Cl 129 mM, together with: external Cl 154 or 0.9 mM).
For `Nc1nc2c(ncn2[C@@H]2O[C@@H]3COP(=O)(O)O[C@H]3[C@H]2O)c(=O)[nH]1`, the Kd was 31 ± 15 µM (Cyclic nucleotide-gated channel alpha-2 (CNGA2, Bos taurus, UniProt Q03041, E340D); channel opening, agonist, single-channel recording; E340D mutant).
`NC(=O)c1ccc[n+]([C@@H]2O[C@H](COP(=O)([O-])OP(=O)(O)OC[C@H]3O[C@@H](n4cnc5c(N)ncnc54)[C@H](OP(=O)(O)O)[C@@H]3O)[C@@H](O)[C@H]2O)c1` gave a Kd of 1020 ± 53 µM (kptA; binding, isothermal titration calorimetry; 17 °C).
With `O=Cc1ccccc1B(O)O` the Kd was ~100 µM (L-Dap; complex formation).
The Kd of `CC(C)(O)CCc1cccc(C(=O)N2Cc3ccccc3C(O)C2)c1` (stereo not shown) is reported as 17 ± 7 µM (Exosome complex component RRP40 (EXOSC3, Homo sapiens, UniProt Q9NQT5); binding, microscale thermophoresis; GST-fused protein).
For `CC[N+](CC)(CC)CC`, the Kd was 22000 ± 2800 µM (Sh (Drosophila melanogaster, UniProt P08510, del6-46); potassium current, blocker, patch clamp, Xenopus oocytes; holding potential 0 mV, together with: 20 mM internal K+).
With `CNCc1ccc(-c2[nH]c3cc(F)cc4c3c2CCNC4=O)cc1` the Kd was < 0.005 µM (PiB; binding, fluorescence titration; upper limit).
`CC1(C)C2CCC(CN=C(N)CSS(=O)(=O)O)C1C2` (stereo not shown) has a Kd of ~150 µM (Splicing factor U2AF 65 kDa subunit, RRM1-RRM2 region (Homo sapiens, UniProt P26368); binding, surface plasmon resonance; no RNA).
For `CC(C)(C)NC(=O)[C@@H]1C[C@@H]2CCCC[C@@H]2CN1C[C@@H](O)[C@H](Cc1ccccc1)NC(=O)[C@H](CC(N)=O)NC(=O)c1ccc2ccccc2n1`, the Kd was 8.5 µM (Rgg3 Streptococcus pyogenes; competition fluorescence polarization; together with: FITC-SHP2-C8 10 nM).
`O=C(CCCOc1ccc(Cl)cc1Cl)N/N=C/c1ncc[nH]1` gave a Kd of 2 µM (dxs; binding, SPR).
`O=P(O)(O)O[C@@H]1C(O)[C@H](OP(=O)(O)O)[C@@H](O)C(O)[C@@H]1O` (stereo partly shown) gave a Kd of 1660 µM (Fermitin family homolog 1, PH domain (Fermt1, Mus musculus, UniProt P59113); surface plasmon resonance; biotinylated compound immobilised).
`CC1=C(/C=C/C(C)=C/C=C/C(C)=C/CO)C(C)(C)CCC1` has a Kd of 0.0213 ± 0.003 µM (RAF proto-oncogene serine/threonine-protein kinase, C1 domain (RAF1, Homo sapiens, UniProt P04049); binding).
The Kd of `NC(=O)c1ccc[n+]([C@@H]2O[C@H](COP(=O)(O)OP(=O)(O)OC[C@H]3O[C@@H](n4cnc5c(N)ncnc54)[C@H](O)[C@@H]3O)[C@@H](O)[C@H]2O)c1` is reported as 9.4 ± 1.2 µM (ahcY (Thermotoga maritima, UniProt O51933); isothermal titration calorimetry; pH 7.5, 293 K, unheated inactive enzyme).
`O=C(COc1ccc(Cl)cc1Cl)N/N=C/c1c[nH]c2ccccc12` gave a Kd of 150 µM (dxs; binding, SPR).
For `CCCC[C@H]1CCCCCCc2[nH]c(/C=C3\N=CC(c4ccc[nH]4)=C3OC)cc21`, the Kd was 0.41 µM (pre-miR-21 RNA; binding, intrinsic fluorescence; together with: 1.0 µM pre-miR-21).
`N[C@@H](CCCC=O)C(=O)O` has a Kd of 310 ± 70 µM (Saccharopine dehydrogenase [NADP(+), L-glutamate-forming] (LYS9, Saccharomyces cerevisiae, UniProt P38999); enzyme activity, substrate; pH 7.0, 25 °C, wild type, together with: NADPH and L-glutamate saturating).
For `CCCCCC[N+](CC)(CC)CC`, the Kd was 6144 ± 21 µM (CNGA1 (Bos taurus, UniProt Q00194); cGMP-gated current block, channel blocker, inside-out patch clamp; HEK293; together with: cGMP 1 mM).

Repeated from above:
With `Nc1ncnc2c1ncn2[C@@H]1O[C@H](COP(=O)(O)OP(=O)(O)OP(=O)(O)O)[C@@H](O)[C@H]1O` the Kd was 1.8 µM (Tyrosine-protein kinase JAK1, kinase domain (JAK1, Homo sapiens, UniProt P23458)).
`[I-].[K+]` gave a Kd of 2900 µM (SLC4A1 (Homo sapiens, UniProt P02730); chloride exchange flux, inhibitor, Dixon plot; human red blood cells; pH 9.2, 0 °C, intracellular Cl 129 mM, together with: external Cl 154 or 0.9 mM).
For `Nc1nc2c(ncn2[C@@H]2O[C@@H]3COP(=O)(O)O[C@H]3[C@H]2O)c(=O)[nH]1`, the Kd was 31 ± 15 µM (Cyclic nucleotide-gated channel alpha-2 (CNGA2, Bos taurus, UniProt Q03041, E340D); channel opening, agonist, single-channel recording; E340D mutant).
`NC(=O)c1ccc[n+]([C@@H]2O[C@H](COP(=O)([O-])OP(=O)(O)OC[C@H]3O[C@@H](n4cnc5c(N)ncnc54)[C@H](OP(=O)(O)O)[C@@H]3O)[C@@H](O)[C@H]2O)c1` gave a Kd of 1020 ± 53 µM (kptA; binding, isothermal titration calorimetry; 17 °C).
With `O=Cc1ccccc1B(O)O` the Kd was ~100 µM (L-Dap; complex formation).
